Results from different studies.
“And” joins repeats or separate records; there may be more than shown. Numbers after ± are the reported error.
Sequence of UniProt Q04759 (whole entry, looked up): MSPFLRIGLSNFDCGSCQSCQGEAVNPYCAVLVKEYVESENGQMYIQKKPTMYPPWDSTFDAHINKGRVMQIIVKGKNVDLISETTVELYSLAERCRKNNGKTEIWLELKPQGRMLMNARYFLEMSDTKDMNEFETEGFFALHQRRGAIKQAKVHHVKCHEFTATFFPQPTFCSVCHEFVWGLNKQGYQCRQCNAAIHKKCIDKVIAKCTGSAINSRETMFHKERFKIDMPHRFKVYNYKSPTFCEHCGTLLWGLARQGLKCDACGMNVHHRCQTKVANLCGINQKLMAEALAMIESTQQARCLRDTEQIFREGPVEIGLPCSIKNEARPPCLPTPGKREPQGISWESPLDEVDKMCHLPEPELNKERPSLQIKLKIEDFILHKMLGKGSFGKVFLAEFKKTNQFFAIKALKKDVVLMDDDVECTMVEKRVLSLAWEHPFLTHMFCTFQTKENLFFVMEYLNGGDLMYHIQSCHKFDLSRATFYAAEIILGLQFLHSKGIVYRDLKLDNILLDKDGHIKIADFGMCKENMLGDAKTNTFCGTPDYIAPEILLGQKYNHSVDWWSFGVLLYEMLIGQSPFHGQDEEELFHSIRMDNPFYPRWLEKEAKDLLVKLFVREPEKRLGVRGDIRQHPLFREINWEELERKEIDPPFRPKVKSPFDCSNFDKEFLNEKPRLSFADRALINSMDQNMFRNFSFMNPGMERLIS
Sequence of UniProt Q96S38 (whole entry, looked up): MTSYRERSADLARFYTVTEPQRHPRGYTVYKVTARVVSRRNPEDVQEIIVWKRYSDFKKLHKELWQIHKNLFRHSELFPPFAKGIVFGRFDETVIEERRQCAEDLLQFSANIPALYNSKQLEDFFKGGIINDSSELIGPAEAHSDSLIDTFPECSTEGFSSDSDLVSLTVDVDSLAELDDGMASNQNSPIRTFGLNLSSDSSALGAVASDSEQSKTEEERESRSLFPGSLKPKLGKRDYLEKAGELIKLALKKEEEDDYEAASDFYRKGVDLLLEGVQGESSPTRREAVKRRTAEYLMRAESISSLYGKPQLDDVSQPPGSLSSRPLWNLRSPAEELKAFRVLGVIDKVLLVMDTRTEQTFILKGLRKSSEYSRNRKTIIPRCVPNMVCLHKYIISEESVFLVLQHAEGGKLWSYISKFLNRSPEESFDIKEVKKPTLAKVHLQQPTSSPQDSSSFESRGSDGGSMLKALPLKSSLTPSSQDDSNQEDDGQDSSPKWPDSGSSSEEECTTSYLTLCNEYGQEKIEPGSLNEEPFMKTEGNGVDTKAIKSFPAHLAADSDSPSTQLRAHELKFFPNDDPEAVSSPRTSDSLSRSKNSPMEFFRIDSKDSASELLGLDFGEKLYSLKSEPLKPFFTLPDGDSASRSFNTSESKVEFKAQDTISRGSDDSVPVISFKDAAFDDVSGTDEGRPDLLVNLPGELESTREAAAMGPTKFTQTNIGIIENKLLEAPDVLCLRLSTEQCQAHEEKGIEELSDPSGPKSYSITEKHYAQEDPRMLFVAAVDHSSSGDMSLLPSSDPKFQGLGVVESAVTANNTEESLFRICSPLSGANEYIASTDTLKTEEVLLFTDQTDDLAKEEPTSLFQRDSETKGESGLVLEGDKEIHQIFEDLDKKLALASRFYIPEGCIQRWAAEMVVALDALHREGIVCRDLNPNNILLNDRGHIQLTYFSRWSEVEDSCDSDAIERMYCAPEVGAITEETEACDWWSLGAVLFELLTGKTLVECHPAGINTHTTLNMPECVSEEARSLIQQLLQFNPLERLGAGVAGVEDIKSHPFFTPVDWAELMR

Compound	target or system	assay	test system	conditions	scale	quantity	result
Cc1nc2cccc(OCC(C)(C)C(=O)NC(C)C)c2c(N)c1C(=O)[O-].[Na+]	Salmonella typhimurium		TA100	2.0 mg per plate, with S9, preincubation		revertant colonies per plate	136 ± 8
CC(C)(c1cc(Br)c(O)c(Br)c1)c1cc(Br)c(O)c(Br)c1		ultrafiltration	cow milk whey	20 nM nominal in whole milk		dose fraction in permeate	7.16%
Cc1ccc(OC[C@@H]2CCCN2C)cc1C(=O)N[C@H](C)c1cc(-c2cnn(C)c2)nc2ccccc12	Vero E6			250 µM		viability	1.69% and 1.13%
CCCCCCCCCCCCCCCC(=O)N[C@@H](CCC(=O)NCCOCCOCCC(=O)NCCOCCOCCC(=O)NCCCC[C@H](NC(=O)[C@H](CC(=O)O)NC(=O)[C@H](CC(C)C)NC(=O)[C@H](Cc1ccc(O)cc1)NC(=O)[C@H](CCCCN)NC(=O)[C@H](CO)NC(=O)[C@H](Cc1ccc(O)cc1)NC(=O)[C@H](CC(=O)O)NC(=O)[C@H](CO)NC(=O)[C@@H](NC(=O)[C@H](Cc1ccccc1)NC(=O)[C@@H](NC(=O)CNC(=O)[C@H](CCC(N)=O)NC(=O)[C@@H](CO)NC(=O)[C@@H](N)Cc1c[nH]cn1)[C@@H](C)O)[C@@H](C)O)C(=O)N[C@@H](CCCNC(=N)N)C(=O)N[C@@H](CCCNC(=N)N)C(=O)N[C@@H](C)C(=O)N[C@@H](CCC(N)=O)C(=O)N[C@@H](CC(=O)O)C(=O)N[C@@H](Cc1ccccc1)C(=O)N[C@H](C(=O)N[C@@H](CCC(N)=O)C(=O)N[C@@H](Cc1c[nH]c2ccccc12)C(=O)N[C@@H](CC(C)C)C(=O)N[C@@H](CC(C)C)C(=O)N[C@@H](CC(N)=O)C(=O)N[C@H](C(=O)NCC(=O)NCC(=O)N1CCC[C@H]1C(=O)N[C@@H](CO)C(=O)N[C@@H](CO)C(=O)NCC(=O)N[C@@H](C)C(=O)N1CCC[C@H]1C(=O)N1CCC[C@H]1C(=O)N1CCC[C@H]1C(=O)N[C@@H](CO)C(N)=O)[C@@H](C)O)C(C)C)C(=O)O		item: AST	rhesus monkey, male	subcutaneous, 60 µg/kg once daily, 28 days		serum enzyme activity	45.9 ± 9.2 U/L
CC(C)Oc1cccc(/N=N/c2ccc3[nH]cc(CCN(C)C)c3c2)c1		light irradiation	solution	added: light 530 nm		trans isomer at photostationary state	98%
CSCC[C@H](NC(=O)[C@@H](NC(=O)[C@H](CC(C)C)NC(=O)[C@@H](NC(=O)[C@H](Cc1c[nH]cn1)NC(=O)CCCCCNC(=O)[C@H](CCCNC(=N)N)NC(=O)[C@H](CCCNC(=N)N)NC(=O)[C@H](CCCNC(=N)N)NC(=O)[C@H](CCC(N)=O)NC(=O)[C@H](CCCNC(=N)N)NC(=O)[C@H](CCCNC(=N)N)NC(=O)[C@H](CCCCN)NC(=O)[C@H](CCCCN)NC(=O)[C@H](CCCNC(=N)N)NC(=O)CNC(=O)[C@@H](N)Cc1ccc(O)cc1)C(C)C)C(C)C)C(=O)N[C@@H](CS)C(=O)N[C@@H](C)C(=O)N[C@H](C(N)=O)[C@@H](C)O			C57BL/6J mice	Alzet osmotic pump, 3 mg/kg, 8 weeks		mean cell volume	47.1 fL
CC(C)(C)C(=O)OCOP(=O)(OCOC(=O)C(C)(C)C)C1CCCN(O)C1=O (stereo not shown)	HCT-15					log LC50	> -4 log M
CC(C)[C@@H]1NC(=O)[C@H](Cc2ccc(O)cc2)NC(=O)[C@H](Cc2ccccc2)NC(=O)[C@H]([C@@H](C)O)NC(=O)[C@@H](Cc2ccc(O)cc2)NC(=O)CSC[C@H](C(=O)NCCOCCOCCOCCOCCOCCOCCC(N)=O)NC(=O)[C@H](C)NC(=O)[C@H](CO)NC(=O)[C@@H]2CCC[C@@H]2NC(=O)[C@H](Cc2c[nH]cn2)NC(=O)[C@H](CCCNC(=N)N)NC(=O)[C@H](Cc2ccc(O)cc2)NC(=O)[C@H]([C@@H](C)O)NC(=O)[C@H](Cc2ccccc2)NC(=O)[C@H]([C@@H](C)O)NC(=O)[C@H](Cc2ccc(O)cc2)NC(=O)[C@H](Cc2ccccc2)NC1=O		HPLC	human serum	10% serum, 37 °C		stability time	≥ 24 h
CC(C)[C@@H]1NC(=O)CNC(=O)[C@H](CC(N)=O)NC(=O)[C@H](CCCNC(=N)N)NC(=O)[C@H](Cc2ccc(O)cc2)NC(=O)[C@H](C(C)C)NC(=O)[C@@H](NC(=O)[C@@H](NC(=O)[C@H](CC(N)=O)NC(=O)[C@H](Cc2c[nH]c3ccccc23)NC(=O)[C@H](C)NC(=O)[C@H](Cc2ccccc2)NC(=O)CNC(=O)[C@H](CCCCN)NC(=O)[C@H](Cc2ccccc2)NC(=O)[C@H](Cc2ccccc2)NC(=O)[C@H](CCCCN)NC(=O)OCC2c3ccccc3-c3ccccc32)C(C)C)CSSC[C@@H](C(=O)N[C@@H](Cc2c[nH]cn2)C(=O)N[C@@H](CCCNC(=N)N)C(=O)N[C@@H](CCCNC(=N)N)C(=O)N[C@@H](C)C(=O)N[C@@H](CC(N)=O)C(N)=O)NC(=O)[C@H](C(C)C)NC(=O)[C@H](CCCNC(=N)N)NC1=O			ICR mice, blood	intraductal mammary, 10 mg/kg, day 5		platelet distribution width	15.78 ± 0.09%
CC(C(=O)O)n1nc(Cn2cc3cc(OCC[18F])c(Cl)cc3n2)c2ccccc2c1=O (racemic)		HPLC	nonhuman primate, plasma	5 min post-injection	reference: plasma radioactivity	hydrophilic radiometabolite	0%
O=C1NC2(CC2)COc2ncc(F)cc2[C@H]2COCCN2c2ccn3ncc1c3n2			Sprague-Dawley rat, male, serum	oral, 2.5 mg/kg/day, 4 weeks daily, end of treatment		gamma-glutamyltransferase activity	0.2 ± 0.1 U/L
CN(C)[C@H]1C[C@@]23CC[C@@]4(O2)C(=CC[C@]2(C)[C@@H](c5ccc6ccncc6c5)CC[C@H]24)C=C3[C@@H](O)[C@@H]1O	RPS6KC1 (Homo sapiens, UniProt Q96S38)	ATP probe labelling, inhibitor, KiNativ profiling		1 µM		inhibition	-0.1%
COc1ccccc1-c1n[nH]c2nc(NC3CCN(C(=O)Cc4ccc(F)cc4F)CC3)ncc12		bead binding, competition bead pull-down, item: LINJ.34.0080	Leishmania donovani extract	10 µM	reference: vehicle	relative abundance	0.96
CC[C@H](C)[C@@H]1NC(=O)[C@H](Cc2ccc(O)cc2)NC(=O)CCCSC[C@@H](C(=O)N(CC(=O)N[C@@H](CC(C)C)C(=O)NCC(N)=O)Cc2ccc(F)cc2)NC(=O)[C@H](CC(N)=O)NC(=O)[C@H](CCC(N)=O)NC1=O			human	intranasal, 400 µg single dose		deaths	0%
O=C(c1cc(Cc2n[nH]c(=O)c3ccccc23)ccc1F)N1CC(CNC2CC2)C1			male Wistar Han rat	oral, 30 mg/kg, day 28		Cmax	2750 ng/mL
CC[C@H](C)[C@H](NC(=O)[C@H](C)NC(=O)[C@H](CCCCN)NC(=O)[C@H](CC(C)C)NC(=O)[C@@H](N)Cc1ccccc1)C(=O)N[C@@H](CCCCN)C(=O)N[C@@H](CCCCN)C(=O)N[C@@H](Cc1ccccc1)C(=O)NCC(=O)N[C@@H](CCCCN)C(=O)N[C@@H](CCC(=O)O)C(=O)N[C@@H](Cc1ccccc1)C(=O)N[C@@H](CCCCN)C(=O)N[C@@H](CCCCN)C(=O)N[C@H](C(=O)NCC(=O)N[C@@H](C)C(=O)N[C@@H](CCCCN)C(=O)N[C@@H](CC(C)C)C(=O)N[C@@H](CCCCN)C(=O)O)[C@@H](C)CC			human red blood cells	64 mg/L, 1 h, mean of replicates		hemolysis	0.551%
CS(C)(=O)=Nc1ccc(-c2ccc(-c3nc4cc(O[C@@H]5CO[C@H]6[C@@H]5OC[C@H]6O)[nH]c4cc3F)cc2)cc1	PRKCQ (Homo sapiens, UniProt Q04759)	enzyme activity, inhibitor		10 µM		inhibition	14%
CC(=O)c1c(C)c2cnc(Nc3ccc(N4CCNCC4)cn3)nc2n(C2CCCC2)c1=O			C57BL/6 mice, blood	25 mg/kg, P25, dosed P10 to P24		platelet count	616 ± 76 10⁹/liter
CC[C@H](C)[C@H](NC(=O)[C@H](CCCN)NC(=O)[C@H](CCCNC(=N)N)NC(=O)[C@@H]1CCCN1C(=O)[C@@H]1CCCN1C(=O)[C@H](CCCNC(=N)N)NC(=O)[C@@H]1CCCN1C(=O)[C@H](CCCNC(=N)N)NC(=O)[C@@H]1CCCN1C(=O)[C@H](CC(C)C)NC(=O)[C@H](Cc1ccc(O)cc1)NC(=O)[C@@H]1CCCN1C(=O)[C@@H]1CCCN1C(=O)[C@H](CCCCN)NC(=O)[C@H](CC(=O)O)NC(=O)[C@@H](N)C(C)C)C(=O)N[C@@H](Cc1ccc(O)cc1)C(=O)N[C@@H](CC(N)=O)C(=O)N[C@@H](CCCN)C(N)=O		cELISA, total compound	CD-1 mice, female, plasma	subcutaneous, 4.34 µmol/kg, single dose		elimination rate constant	0.016 min⁻¹

Repeated from above:
Compound	target or system	assay	test system	conditions	scale	quantity	result
Cc1ccc(OC[C@@H]2CCCN2C)cc1C(=O)N[C@H](C)c1cc(-c2cnn(C)c2)nc2ccccc12	Vero E6			250 µM		viability	1.69% and 1.13%
Cc1nc2cccc(OCC(C)(C)C(=O)NC(C)C)c2c(N)c1C(=O)[O-].[Na+]	Salmonella typhimurium		TA100	2.0 mg per plate, with S9, preincubation		revertant colonies per plate	136 ± 8
